Results of several laboratories.
Each line is one published result; not all experiments were run side by side. ± gives the spread as reported.
Organism: SARS-CoV-2

SMILES | effect on | technique | measured | cells | strain | time | IC50
Cc1ccc(N2CC3CC(C2)N3)cc1C(=O)NC1(c2ccc3c4c(cccc24)C(=O)N3C)CC1 | viral replication | – | – | Vero C1008 | XBB.1 | – | 0.0453 ± 0.0014 µM
Cc1cc(C)n(-c2nc(-c3ccccc3)cc(=O)n2CC(=O)Nc2cccc([N+](=O)[O-])c2)n1 | pseudovirus entry | – | – | HEK293T | – | 24 h | 32.1 µM
O=P(O)(OCCc1ccccc1)Oc1c2c(c(OP(=O)(O)OCCc3ccccc3)c3c1C1CC3c3cc4c(cc31)C1CC4c3ccccc31)C1CC2c2cc3c(cc21)C1CC3c2ccccc21 | spike pseudoparticle entry | – | – | Caco-2 | – | – | 1.6 µM
C(=N\Cc1cc(C/N=C/c2ccc[nH]2)cc(-c2cc(C/N=C/c3ccc[nH]3)cc(C/N=C/c3ccc[nH]3)c2)c1)/c1ccc[nH]1 | viral replication | plaque reduction neutralization | – | – | WA.1 | – | ~20 µM
Cc1ccc(COP(=O)(O)Oc2c3c(c(OP(=O)(O)OCc4ccc(C)cc4)c4c2C2CC4c4cc5c(cc42)C2CC5c4ccccc42)C2CC3c3cc4c(cc32)C2CC4c3ccccc32)cc1 | spike pseudoparticle entry | – | – | Caco-2 | – | – | 1.6 µM
Oc1c(CN2CCCC2)cc(Nc2c3cc(Cl)ccc3nc3ccc(Cl)cc23)cc1CN1CCCC1 | viral replication | – | – | U2OS | BetaCoV/France/IDF0372/2020 | – | 1.76 µM
CC[C@H](C)[C@H](NC(=O)[C@H](C)NC(=O)[C@H](CCC(=O)O)NC(=O)[C@H](CCC(=O)O)NC(=O)[C@H](CC(C)C)NC(=O)[C@H](CCCCN)NC(=O)[C@H](CCCCN)NC(=O)[C@H](CCSC)NC(=O)[C@H](CCC(=O)O)NC(=O)[C@H](Cc1ccc(O)cc1)NC(=O)[C@H](CCC(=O)O)NC(=O)[C@H](CC(C)C)NC(=O)[C@H](CC(=O)O)NC(=O)[C@H](CC(C)C)NC(=O)[C@H](Cc1ccccc1)NC(=O)[C@@H](NC(=O)[C@@H](NC(=O)[C@@H](N)CC(N)=O)C(C)C)[C@@H](C)O)C(=O)N[C@@H](CCCCN)C(=O)N[C@@H](CCCCN)C(=O)N[C@@H](CC(C)C)C(=O)N[C@@H](CCC(=O)O)C(=O)N[C@@H](CCC(=O)O)C(=O)N[C@@H](CO)C(=O)N[C@@H](Cc1ccc(O)cc1)C(=O)N[C@H](C(=O)N[C@@H](CC(=O)O)C(=O)N[C@@H](CC(C)C)C(=O)N[C@@H](CCCCN)C(=O)N[C@@H](CCC(=O)O)C(=O)N[C@@H](CC(C)C)C(=O)NCC(=O)N[C@H](C(=O)N[C@@H](Cc1ccc(O)cc1)C(=O)N[C@@H](CCC(=O)O)C(=O)N[C@@H](Cc1ccc(O)cc1)C(=O)NCC(=O)N[C@@H](CO)C(=O)NCC(=O)N[C@@H](CSCC(=O)O[C@H]1CC[C@@]2(C)C(=CC[C@H]3[C@@H]4CC[C@H]([C@H](C)CCCC(C)C)[C@@]4(C)CC[C@@H]32)C1)C(N)=O)[C@@H](C)O)[C@@H](C)CC | viral replication | – | – | – | – | – | 0.003 µM
CCN(CC)CCCC(C)Nc1c2cc(OC)ccc2nc2ccc(C(F)(F)F)cc12 (centres unmarked) | viral replication | – | – | U2OS | BetaCoV/France/IDF0372/2020 | – | 1.81 µM
CC[C@@]1(O)C[C@H](O[C@H]2C[C@H](N(C)C)[C@H](O[C@H]3C[C@H](O)[C@H](O[C@H]4CCC(=O)[C@H](C)O4)[C@H](C)O3)[C@H](C)O2)c2c(cc3c(c2O)C(=O)c2c(O)cccc2C3=O)[C@H]1C(=O)OC | viral replication | RT-qPCR | viral RNA in supernatant | Calu-3 | SA | – | 0.136 µM
CC(C)CCOP(=O)(O)Oc1c2c(c(OP(=O)(O)OCCC(C)C)c3c1C1CC3c3cc4c(cc31)C1CC4c3ccccc31)C1CC2c2cc3c(cc21)C1CC3c2ccccc21 | spike pseudoparticle entry | – | – | Caco-2 | – | – | 2.6 µM
CC1OC(OC2C(OC(=O)C34CCC(C)(C)CC3C3=CCC5C6(C)CCC(OC7OC(CO)C(O)C(O)C7O)C(C)(C)C6CCC5(C)C3(C)CC4O)OCC(O)C2O)C(O)C(O)C1OC1OCC(O)C(OC2OCC(O)C(OC3OCC(O)C(O)C3O)C2O)C1O (centres unmarked) | viral infection | – | – | Vero | ancestral | 24 h | 1.42 µM
C#CCCCCOP(=O)(O)Oc1c2c(c(OP(=O)(O)OCCCCC#C)c3c1C1CC3c3cc4c(cc31)C1CC4c3ccccc31)C1CC2c2cc3c(cc21)C1CC3c2ccccc21 | spike pseudoparticle entry | – | – | Caco-2 | – | – | 16.2 µM
Cc1oc2nc1C(=O)N[C@](C)(C(=O)O)c1nc(c(C)o1)C(=O)N[C@](C)(C(=O)O)c1nc(c(C)o1)C(=O)N[C@]2(C)C(=O)O | viral replication | – | – | Vero E6 | NRC-03-nhCoV | 72 h | 18.9 µM
CC1(C)CC[C@]2(C(=O)O)CC[C@]3(C)C(=CC[C@@H]4[C@@]5(C)CC[C@H](O[C@@H]6O[C@H](CO)[C@@H](O)[C@H](O)[C@H]6O)C(C)(C)[C@@H]5CC[C@]43C)[C@@H]2C1 | pseudovirus cell entry | luciferase reporter | – | NCI-H1299 ACE2-expressing | – | 24 h | > 10 µM
O=c1c2ccccc2[se]n1-c1ccncc1F | – | – | – | – | – | – | 8.23 µM
O=C(Nc1ccc([N+](=O)[O-])cc1Cl)c1cc(Cl)ccc1O | viral replication | – | – | Vero E6 | wild type | – | 0.13 µM
COc1ccc2nc3ccc(F)cc3c(Nc3cc(CN4CCCC4)c(O)c(CN4CCCC4)c3)c2c1 | viral replication | – | – | U2OS | BetaCoV/France/IDF0372/2020 | – | 1.84 µM
O=P(O)(OCc1ccccc1)Oc1c2c(c(OP(=O)(O)OCc3ccccc3)c3c1C1CC3c3cc4c(cc31)C1CC4c3ccccc31)C1CC2c2cc3c(cc21)C1CC3c2ccccc21 | spike pseudoparticle entry | – | – | Caco-2 | – | – | 1.8 µM
Oc1ccc(Nc2c3ccc(Cl)cc3nc3ccc(Cl)cc23)cc1CN1CCCC1 | viral replication | – | – | U2OS | BetaCoV/France/IDF0372/2020 | – | 1.37 µM
CCCCOP(=O)(O)Oc1c2c(c(OP(=O)(O)OCCCC)c3c1C1CC3c3cc4c(cc31)C1CC4c3ccccc31)C1CC2c2cc3c(cc21)C1CC3c2ccccc21 | spike pseudoparticle entry | – | – | Caco-2 | – | – | 14.2 µM
CC1OC(OC2C(OC(=O)C34CCC(C)(C)CC3C3=CCC5C6(C)CCC(OC7OC(CO)C(O)C(O)C7O)C(C)(C)C6CCC5(C)C3(C)CC4O)OCC(O)C2O)C(O)C(O)C1OC1OCC(O)C(OC2OCC(O)C(O)C2O)C1O (centres unmarked) | viral infection | – | – | Vero | ancestral | 24 h | 1.04 µM
C=CCCCCOP(=O)(O)Oc1c2c(c(OP(=O)(O)OCCCCC=C)c3c1C1CC3c3cc4c(cc31)C1CC4c3ccccc31)C1CC2c2cc3c(cc21)C1CC3c2ccccc21 | spike pseudoparticle entry | – | – | Caco-2 | – | – | 16.8 µM
CCCCCCCCCCCC1CC(=O)NC(CC(N)=O)C(=O)NC(Cc2ccc(O)cc2)C(=O)NC(CC(N)=O)C(=O)NC(CCC(N)=O)C(=O)N2CCCC2C(=O)NC(CC(N)=O)C(=O)NC(CO)C(=O)N1 (centres unmarked) | viral replication | – | – | Vero | – | 24 h | 11.1 ± 2 µg/mL

A few entries again:
SMILES | effect on | technique | measured | cells | strain | time | IC50
CC1OC(OC2C(OC(=O)C34CCC(C)(C)CC3C3=CCC5C6(C)CCC(OC7OC(CO)C(O)C(O)C7O)C(C)(C)C6CCC5(C)C3(C)CC4O)OCC(O)C2O)C(O)C(O)C1OC1OCC(O)C(OC2OCC(O)C(OC3OCC(O)C(O)C3O)C2O)C1O (centres unmarked) | viral infection | – | – | Vero | ancestral | 24 h | 1.42 µM
C#CCCCCOP(=O)(O)Oc1c2c(c(OP(=O)(O)OCCCCC#C)c3c1C1CC3c3cc4c(cc31)C1CC4c3ccccc31)C1CC2c2cc3c(cc21)C1CC3c2ccccc21 | spike pseudoparticle entry | – | – | Caco-2 | – | – | 16.2 µM
